Assay results pooled from the literature.
Compare with care: the assays were run in different laboratories. Values joined by “and” are separate records of one study, mostly repeats; a detail may differ. ± gives the spread as reported.
B1: UGT76G1 (Stevia rebaudiana, UniProt Q6VAB4); chain MENKTETTVRRRRRIILFPVPFQGHINPILQLANVLYSKGFSITIFHTNFNKPKTSNYPHFTFRFILDNDPQDERISNLPTHGPLAGMRIPIINEHGADELRRELELLMLASEEDEEVSCLITDALWYFAQSVADSLNLRRLVLMTSSLFNFHAHVSLPQFDELGYLDPDDKTRLEEQASGFPMLKVKDIKSAYSNWQILKEILGKMIKQTKASSGVIWNSFKELEESELETVIREIPAPSFLIPLPKHLTASSSSLLDHDRTVFQWLDQQPPSSVLYVSFGSTSEVDEKDFLEIARGLVDSKQSFLWVVRPGFVKGSTWVEPLPDGFLGERGRIVKWVPQQEVLAHGAIGAFWTHSGWNSTLESVCEGVPMIFSDFGLDQPLNARYMSDVLKVGVYLENGWERGEIANAIRRVMVDEEGEYIRQNARVLKQKADVSLMKGGSSYESLESLVSYISSL

The tissue uptake of `CCCC[C@H](NC(=O)COCCOCCNC(=O)CN1CCN(CC(=O)O)CCN(CC(=O)O)CC1)C(=O)N[C@H]1CC(=O)NCCCC[C@@H](C(N)=O)NC(=O)[C@H](Cc2c[nH]c3ccccc23)NC(=O)[C@H](CCCNC(=N)N)NC(=O)[C@@H](Cc2ccccc2)NC(=O)[C@H](Cc2c[nH]cn2)NC1=O` [technetium-99m labelled] is reported as 0.85 ± 0.75 %ID/g (C57 mouse, spleen; intravenous, 0.037 MBq, 0.5 h).
With `rCR (Lodderomyces parapsilosis, UniProt A1X808)` the kcat was 1.57 ± 0.12 s⁻¹ (CC(=O)c1cccc(Cl)c1; steady-state kinetics; pH 7, 30 °C, with: NADH 0.5 mM).
With `B1 (UGT76G1)` the kcat was 1.21 ± 0.0498 s⁻¹ (C=C1C[C@@]23CC[C@H]4[C@@](C)(CCC[C@@]4(C)C(=O)O[C@@H]4O[C@H](CO)[C@@H](O)[C@H](O)[C@H]4O)[C@@H]2CC[C@]1(O[C@@H]1O[C@H](CO)[C@@H](O)[C@H](O)[C@H]1O[C@@H]1O[C@H](CO)[C@@H](O)[C@H](O)[C@H]1O)C3; steady-state kinetics; pH 7.25, 40 °C).
For `CC(C)C[C@H](NC(=O)[C@H](Cc1ccc(O)cc1)NC(=O)[C@@H](CCCNC(=N)N)NC(=O)[C@@H](CO)NC(=O)[C@H](Cc1ccccc1)NC(=O)[C@H](CC1CCCCC1)NC(=O)[C@H](CC(=O)O)NC(=O)CN1CCN(CC(=O)O)CCN(CC(=O)O)CCN(CC(=O)O)CC1)C(=O)N[C@@H](Cc1c[nH]c2ccccc12)C(=O)N[C@@H](CO)C(=O)O` [copper-64 labelled], the activity concentration was 492 Bq/mL and 474 Bq/mL and 650 Bq/mL and 573 Bq/mL and 703 Bq/mL and 410 Bq/mL (human, spleen; concentration not given, 24 h).
`CC(C)C[C@@H](NC(=O)[C@@H](CC(C)C)NC(=O)[C@@H](CC(=O)O)NC(=O)[C@@H](CC(C)C)NC(=O)[C@@H](CC(C)C)NC(=O)[C@@H](CC(C)C)NC(=O)[C@H](NC(=O)[C@@H](CC(=O)O)NC(=O)[C@H](NC(=O)[C@H]1CCCN1C(=O)[C@@H](Cc1ccccc1)NC(=O)[C@@H](CC(C)C)NC(=O)[C@@H](CC(C)C)NC(=O)[C@@H](CC(=O)O)NC(=O)[C@@H](CC(C)C)NC(=O)[C@@H](Cc1ccc(O)cc1)NC(=O)[C@@H](C)NC(=O)[C@@H](CCCNC(=N)N)NC(=O)[C@@H](Cc1c[nH]c2ccccc12)NC(=O)[C@H]1CCCN1C(=O)[C@@H](CC(N)=O)NC(=O)[C@@H](CCC(N)=O)NC(=O)[C@@H](CC(=O)O)NC(=O)[C@@H](CC(=O)O)NC(=O)[C@@H](CSC1CC(=O)N(CCNC(=O)CN2CCN(CC(=O)O)CCN(CC(=O)O)CC2)C1=O)NC(=O)[C@@H](C)N)[C@H](C)O)[C@H](C)O)C(=O)N[C@H](Cc1c[nH]c2ccccc12)C(=O)O` (some centres unmarked) [fluorine-18 labelled] has a tissue uptake of 8.02 %ID/g (female C57BL/6 mice, B16-F10 melanoma, tumor; intravenous, 6 h).
`CCCC[C@H](NC(=O)CCCCCCCNC(=O)CN1CCN(CC(=O)O)CCN(CC(=O)O)CC1)C(=O)N[C@H]1CC(=O)NCCCC[C@@H](C(N)=O)NC(=O)[C@H](Cc2c[nH]c3ccccc23)NC(=O)[C@H](CCCNC(=N)N)NC(=O)[C@@H](Cc2ccccc2)NC(=O)[C@H](Cc2c[nH]cn2)NC1=O` [technetium-99m labelled] has a tissue uptake of 0.01 ± 0.01 %ID/g (C57 mouse, brain; intravenous, 0.037 MBq, 24 h).
The tissue uptake of `CC(C)C[C@H](NC(=O)[C@@H](CCCCNC(=O)[C@@H](Cc1ccccc1)NC(=O)CCCCCNC(=O)CN1CCN(CC(=O)O)CCN(CC(=O)O)CCN(CC(=O)O)CC1)NC(=O)[C@H](Cc1ccc(O)cc1)NC(=O)[C@H](CO)NC(=O)[C@H](Cc1c[nH]c2ccccc12)NC(=O)[C@H](Cc1c[nH]cn1)NC(=O)[C@@H]1CCC(=O)N1)C(=O)N[C@@H](CCCNC(=N)N)C(=O)N1CCC[C@H]1C(=O)NCC(N)=O` [indium-111 labelled] is reported as 0.47 ± 0.11 %ID/g (female athymic nude mice, liver; intravenous, 0.037 MBq, 2 h).
`C=C1CC[C@H](OCCCNC(=O)CCOCCOCCOCCOCCOCCOCCOCCOCCOCCOCCOCCOCCOCCOCCOCCOCCOCCOCCOCCOCCOCCOCCOCCOCCOCCOCCOCCOCCOCCOCCOCCOCCOCCOCCOCCOCCNC(=O)CCN2C(=O)CC(SC[C@H](NC(=O)[C@H](Cc3ccccc3)NC(=O)[C@H](CC(N)=O)NC(=O)[C@H](Cc3c[nH]cn3)NC(=O)[C@@H](NC(=O)[C@H](CC(=O)O)NC(=O)[C@H](CCC(N)=O)NC(=O)[C@H](CC(C)C)NC(=O)[C@H](CCCCN)NC(=O)[C@H](CCCCN)NC(=O)[C@H](CCCNC(=N)N)NC(=O)[C@H](CC(C)C)NC(=O)[C@H](Cc3c[nH]c4ccccc34)NC(=O)[C@H](CCC(=O)O)NC(=O)[C@@H](NC(=O)[C@H](CCCNC(=N)N)NC(=O)[C@H](CCC(=O)O)NC(=O)[C@H](CCSC)NC(=O)[C@H](CO)NC(=O)[C@H](CC(N)=O)NC(=O)[C@H](CC(C)C)NC(=O)[C@H](Cc3c[nH]cn3)NC(=O)[C@H](CCCCN)NC(=O)CNC(=O)[C@H](CC(C)C)NC(=O)[C@H](CC(N)=O)NC(=O)[C@H](Cc3c[nH]cn3)NC(=O)[C@H](CCSC)NC(=O)[C@H](CC(C)C)NC(=O)[C@H](CCC(N)=O)NC(=O)[C@@H](NC(=O)[C@H](CCC(=O)O)NC(=O)[C@H](CO)NC(=O)[C@@H](NC(=O)[C@@H](N)CO)C(C)C)[C@@H](C)CC)C(C)C)C(C)C)C(=O)O)C2=O)C/C1=C/C=C1\CCC[C@]2(C)[C@@H]([C@H](C)CCCC(C)(C)O)CC[C@@H]12` (some centres unmarked) has a bioavailability of 9.7% (rat, plasma; subcutaneous, 300 µg/kg, single dose).

Excerpt of the above:
`CCCC[C@H](NC(=O)CCCCCCCNC(=O)CN1CCN(CC(=O)O)CCN(CC(=O)O)CC1)C(=O)N[C@H]1CC(=O)NCCCC[C@@H](C(N)=O)NC(=O)[C@H](Cc2c[nH]c3ccccc23)NC(=O)[C@H](CCCNC(=N)N)NC(=O)[C@@H](Cc2ccccc2)NC(=O)[C@H](Cc2c[nH]cn2)NC1=O` [technetium-99m labelled] has a tissue uptake of 0.01 ± 0.01 %ID/g (C57 mouse, brain; intravenous, 0.037 MBq, 24 h).
